Experimental data from different studies.
Values joined by “and” are separate records of one study, mostly repeats; a detail may differ. ± marks the error that the study gave.
U2AF2: U2AF2 148-342 (Homo sapiens, UniProt P26368)
UniProt P26368, sequence (whole entry, looked up): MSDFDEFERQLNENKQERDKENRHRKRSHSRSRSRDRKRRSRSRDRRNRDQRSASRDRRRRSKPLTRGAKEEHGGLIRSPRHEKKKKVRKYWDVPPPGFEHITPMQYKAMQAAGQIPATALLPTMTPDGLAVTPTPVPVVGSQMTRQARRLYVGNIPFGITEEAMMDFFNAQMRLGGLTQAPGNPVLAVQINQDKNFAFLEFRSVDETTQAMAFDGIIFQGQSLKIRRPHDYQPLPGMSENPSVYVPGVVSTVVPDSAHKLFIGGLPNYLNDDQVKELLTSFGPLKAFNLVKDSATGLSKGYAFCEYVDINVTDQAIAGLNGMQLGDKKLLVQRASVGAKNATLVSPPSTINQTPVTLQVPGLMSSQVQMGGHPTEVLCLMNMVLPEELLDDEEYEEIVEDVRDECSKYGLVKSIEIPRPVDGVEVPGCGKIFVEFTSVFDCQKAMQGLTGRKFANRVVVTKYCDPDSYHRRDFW
SPT15 full length assumed: SPT15 full length assumed (Saccharomyces cerevisiae, UniProt P13393)
UniProt P13393, sequence (whole entry, looked up): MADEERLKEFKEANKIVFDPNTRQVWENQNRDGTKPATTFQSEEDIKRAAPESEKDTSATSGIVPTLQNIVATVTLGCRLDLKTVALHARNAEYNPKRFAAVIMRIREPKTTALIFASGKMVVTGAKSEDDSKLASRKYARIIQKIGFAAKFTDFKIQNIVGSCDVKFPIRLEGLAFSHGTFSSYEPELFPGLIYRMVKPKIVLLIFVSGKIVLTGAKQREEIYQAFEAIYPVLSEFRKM
B1: human UPF1; sequence looked up; chain MSVEAYGPSSQTLTFLDTEEAELLGADTQGSEFEFTDFTLPSQTQTPPGGPGGPGGGGAGGPGGAGAGAAAGQLDAQVGPEGILQNGAVDDSVAKTSQLLAELNFEEDEEDTYYTKDLPIHACSYCGIHDPACVVYCNTSKKWFCNGRGNTSGSHIVNHLVRAKCKEVTLHKDGPLGETVLECYNCGCRNVFLLGFIPAKADSVVVLLCRQPCASQSSLKDINWDSSQWQPLIQDRCFLSWLVKIPSEQEQLRARQITAQQINKLEELWKENPSATLEDLEKPGVDEEPQHVLLRYEDAYQYQNIFGPLVKLEADYDKKLKESQTQDNITVRWDLGLNKKRIAYFTLPKTDSGNEDLVIIWLRDMRLMQGDEICLRYKGDLAPLWKGIGHVIKVPDNYGDEIAIELRSSVGAPVEVTHNFQVDFVWKSTSFDRMQSALKTFAVDETSVSGYIYHKLLGHEVEDVIIKCQLPKRFTAQGLPDLNHSQVYAVKTVLQRPLSLIQGPPGTGKTVTSATIVYHLARQGNGPVLVCAPSNIAVDQLTEKIHQTGLKVVRLCAKSREAIDSPVSFLALHNQIRNMDSMPELQKLQQLKDETGELSSADEKRYRALKRTAERELLMNADVICCTCVGAGDPRLAKMQFRSILIDESTQATEPECMVPVVLGAKQLILVGDHCQLGPVVMCKKAAKAGLSQSLFERLVVLGIRPIRLQVQYRMHPALSAFPSNIFYEGSLQNGVTAADRVKKGFDFQWPQPDKPMFFYVTQGQEEIASSGTSYLNRTEAANVEKITTKLLKAGAKPDQIGIITPYEGQRSYLVQYMQFSGSLHTKLYQEVEIASVDAFQGREKDFIILSCVRANEHQGIGFLNDPRRLNVALTRARYGVIIVGNPKALSKQPLWNHLLNYYKEQKVLVEGPLNNLRESLMQFSKPRKLVNTINPGARFMTTAMYDAREAIIPGSVYDRSSQGRPSSMYFQTHDQIGMISAGPSHVAAMNIPIPFNLVMPPMPPPGYFGQANGPAAGRGTPKGKTGRGGRQKNRFGLPGPSQTNLPNSQASQDVASQPFSQGALTQGYISMSQPSQMSQPGLSQPELSQDSYLGDEFKSQIDVALSQDSTYQGERAYQHGGVTGLSQY
B2: human reticulocalbin-1; sequence looked up; chain KPTVRKERVVRPDSELGERPPEDNQSFQYDHEAFLGKEDSKTFDQLTPDESKERLGKIVDRIDNDGDGFVTTEELKTWIKRVQKRYIFDNVAKVWKDYDRDKDDKISWEEYKQATYGYYLGNPAEFHDSSDHHTFKKMLPRDERRFKAADLNGDLTATREEFTAFLHPEEFEHMKEIVVLETLEDIDKNGDGFVDQDEYIADMFSHEENGPEPDWVLSEREQFNEFRDLNKDGKLDKDEIRHWILPQDYDHAQAEARHLVYESDKNKDEKLTKEEILENWNMFVGSQATNYGEDLTKNHDEL
B3: adiponectin; sequence looked up; chain ETTTQGPGVLLPLPKGACTGWMAGIPGHPGHNGAPGRDGRDGTPGEKGEKGDPGLIGPKGDIGETGVPGAEGPRGFPGIQGRKGEPGEGAYVYRSAFSVGLETYVTIPNMPIRFTKIFYNQQNHYDGSTGKFHCNIPGLYYFAYHITVYMKDVKVSLFKKDKAMLFTYDQYQENNVDQASGSVLLHLEVGDQVWLQVYGEGERNGLYADNDNDSTFTGFLLYHDTN
B4: human RBM10; sequence looked up; chain MEYERRGGRGDRTGRYGATDRSQDDGGENRSRDHDYRDMDYRSYPREYGSQEGKHDYDDSSEEQSAEDSYEASPGSETQRRRRRRHRHSPTGPPGFPRDGDYRDQDYRTEQGEEEEEEEDEEEEEKASNIVMLRMLPQAATEDDIRGQLQSHGVQAREVRLMRNKSSGQSRGFAFVEFSHLQDATRWMEANQHSLNILGQKVSMHYSDPKPKINEDWLCNKCGVQNFKRREKCFKCGVPKSEAEQKLPLGTRLDQQTLPLGGRELSQGLLPLPQPYQAQGVLASQALSQGSEPSSENANDTIILRNLNPHSTMDSILGALAPYAVLSSSNVRVIKDKQTQLNRGFAFIQLSTIVEAAQLLQILQALHPPLTIDGKTINVEFAKGSKRDMASNEGSRISAASVASTAIAAAQWAISQASQGGEGTWATSEEPPVDYSYYQQDEGYGNSQGTESSLYAHGYLKGTKGPGITGTKGDPTGAGPEASLEPGADSVSMQAFSRAQPGAAPGIYQQSAEASSSQGTAANSQSYTIMSPAVLKSELQSPTHPSSALPPATSPTAQESYSQYPVPDVSTYQYDETSGYYYDPQTGLYYDPNSQYYYNAQSQQYLYWDGERRTYVPALEQSADGHKETGAPSKEGKEKKEKHKTKTAQQIAKDMERWARSLNKQKENFKNSFQPISSLRDDERRESATADAGYAILEKKGALAERQHTSMDLPKLASDDRPSPPRGLVAAYSGESDSEEEQERGGPEREEKLTDWQKLACLLCRRQFPSKEALIRHQQLSGLHKQNLEIHRRAHLSENELEALEKNDMEQMKYRDRAAERREKYGIPEPPEPKRRKYGGISTASVDFEQPTRDGLGSDNIGSRMLQAMGWKEGSGLGRKKQGIVTPIEAQTRVRGSGLGARGSSYGVTSTESYKETLHKTMVTRFNEAQ
UniProt Q00535, sequence (whole entry, looked up): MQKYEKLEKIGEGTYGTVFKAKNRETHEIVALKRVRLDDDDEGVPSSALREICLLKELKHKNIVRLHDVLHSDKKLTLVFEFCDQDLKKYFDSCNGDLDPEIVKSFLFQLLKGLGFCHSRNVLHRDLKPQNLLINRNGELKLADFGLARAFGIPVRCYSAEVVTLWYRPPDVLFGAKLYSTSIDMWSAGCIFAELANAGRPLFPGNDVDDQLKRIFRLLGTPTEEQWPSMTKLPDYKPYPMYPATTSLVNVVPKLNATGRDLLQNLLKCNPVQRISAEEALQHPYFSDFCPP

`heparin` — result for “cells with neurites”: greater than 70% (PC-12 cells; 100 µg/mL, added: NGF).
`ESDPITSAY` has a GFP-positive cells of 2.99% (Jurkat expressing engineered TCR; NFAT-eGFP reporter, fluorescence microscopy; peptide; concentration not given, HLA-A*01:01 on EL4 cells).
`B1 (human UPF1)`: “log2 fold change” -1.45 (CYB5R4 knockout human cells; PP4 interaction, 3xFLAG-PP4C IP-MS; concentration not given; relative to: CYB5R4 KO over parental).
`AUUUUUGUU (ssRNA)` has a Kd of 2830 nM (U2AF2; sequencing of bound RNA; RNA; motif only).
`KEIFWDRCLSVINLMSSKMLQINA` has an activity change of 37% (Cyclin-dependent kinase 5, with p25 (CDK5, Homo sapiens, UniProt Q00535); phosphotransferase activity, radiometric; peptide; concentration not given, 10% DMSO, added: histone substrate; relative to: p5-WT peptide).
For `ETDPIGHEF`, the GFP-positive cells was 6% (Jurkat expressing engineered TCR; NFAT-eGFP reporter, fluorescence microscopy; peptide; concentration not given, HLA-A*01:01 on EL4 cells).
The selectivity ratio of `MTVCNASQRQAHAQATAVSL` is reported as 4.2 ± 0.94 (H2087; phage binding; peptide; relative to: targeting over control phage).
`B2 (human reticulocalbin-1)`: “log2 fold change” 0.25 (CYB5R4 knockout human cells; PP4 interaction, 3xFLAG-PP4C IP-MS; concentration not given; relative to: CYB5R4 KO over parental).
The phosphorylation level of `Peginesatide` is reported as 3.7 fold (UT7/EPO; tyrosine phosphorylation, LC-MS/MS phosphoproteomics, GluC, refers to: SLC4A7 tyrosine 44; 10 nM, 15 min, added: 10 U/mL EPO; relative to: vehicle).
The mRNA level of `B3 (adiponectin)` is reported as 0.91 ± 0.28 (HUVEC; real-time PCR, refers to: ICAM-1; 15 µg/mL, 24 h, unit not given, added: TNF-α and IFN-γ; relative to: stimulated untreated).
For `CTCAGGAATTCCTATCAAGTAATGTGGAGCTCAGTTCAAGTCAATCGGTCC (dsDNA; 5'-amino-C6 primer)`, the Kd was 6.34 ± 0.3 nM (SPT15 full length assumed; array; double-stranded DNA, one strand shown; TBP alone).
With `MSDPIQDDF` the GFP-positive cells was 0.674% (Jurkat NFAT-eGFP expressing engineered TCR; NFAT reporter gene; peptide; concentration not given, HLA-A*01:01 presentation).
`UCAUGUUUC (ssRNA)` gave a Kd of 2350 nM (U2AF2; sequencing of bound RNA; RNA; motif only).
`Pam2CSK4` has a protein level of 1.23 and 1.2 and 1.19 (BV-2; Western blot, refers to: MSR1; concentration not given, unit not given; relative to: control).
The GFP-positive cells of `RVEPIPLGF` is reported as 0.533% (Jurkat expressing engineered TCR; NFAT-eGFP reporter, fluorescence microscopy; peptide; concentration not given, HLA-A*01:01 on EL4 cells).
`CGCGCCTGCGCTCTATATATACAGCGGCCCTGCCCTCAAGTCAATCGGTCC (dsDNA; 5'-amino-C6 primer)` gave a Kd of 16.1 ± 0.57 nM (SPT15 full length assumed; array; double-stranded DNA, one strand shown; TBP alone).
Under “log2 fold change”, `human apolipoprotein L2` is recorded as -0.41 (CYB5R4 knockout human cells; PP4 interaction, 3xFLAG-PP4C IP-MS; concentration not given; relative to: CYB5R4 KO over parental).
For `epoetin alfa`, the mRNA level was 5.9 fold (UT7/EPO; RT-qPCR, refers to: IER3; concentration not given, 90 min, normalized to HPRT1; relative to: vehicle).
`B4 (human RBM10)`: “log2 fold change” -0.64 (CYB5R4 knockout human cells; PP6 interaction, 3xFLAG-PP6C IP-MS; concentration not given; relative to: CYB5R4 KO over parental).
With `QVDPIGQDY` the GFP-positive cells was 0.562% (Jurkat expressing engineered TCR; NFAT-eGFP reporter, fluorescence microscopy; peptide; concentration not given, HLA-A*01:01 on EL4 cells).
For `human IGHG1`, “log2 fold change” read 2.02 (CYB5R4 knockout human cells; PP4 interaction, 3xFLAG-PP4C IP-MS; concentration not given; relative to: CYB5R4 KO over parental).
`human ME2 A65V mutant` gave a Hill coefficient of 1.17 ± 0.15 (enzyme activity, NADH absorbance; with fumarate 3 mM, added: L-malate varied).
Under “log2 fold change”, `human TUBB2A` is recorded as -0.58 (CYB5R4 knockout human cells; PP4 interaction, 3xFLAG-PP4C IP-MS; concentration not given; relative to: CYB5R4 KO over parental).
For `EIDPIQLDY`, the GFP-positive cells was 3.26% (Jurkat expressing engineered TCR; NFAT-eGFP reporter, fluorescence microscopy; peptide; concentration not given, HLA-A*01:01 on EL4 cells).

A few entries again:
The mRNA level of `B3 (adiponectin)` is reported as 0.91 ± 0.28 (HUVEC; real-time PCR, refers to: ICAM-1; 15 µg/mL, 24 h, unit not given, added: TNF-α and IFN-γ; relative to: stimulated untreated).
For `CTCAGGAATTCCTATCAAGTAATGTGGAGCTCAGTTCAAGTCAATCGGTCC (dsDNA; 5'-amino-C6 primer)`, the Kd was 6.34 ± 0.3 nM (SPT15 full length assumed; array; double-stranded DNA, one strand shown; TBP alone).
With `MSDPIQDDF` the GFP-positive cells was 0.674% (Jurkat NFAT-eGFP expressing engineered TCR; NFAT reporter gene; peptide; concentration not given, HLA-A*01:01 presentation).
